Literature values as cited in several papers.
± marks the error that the study gave.
Chain of UniProt Q01959 (whole entry, looked up): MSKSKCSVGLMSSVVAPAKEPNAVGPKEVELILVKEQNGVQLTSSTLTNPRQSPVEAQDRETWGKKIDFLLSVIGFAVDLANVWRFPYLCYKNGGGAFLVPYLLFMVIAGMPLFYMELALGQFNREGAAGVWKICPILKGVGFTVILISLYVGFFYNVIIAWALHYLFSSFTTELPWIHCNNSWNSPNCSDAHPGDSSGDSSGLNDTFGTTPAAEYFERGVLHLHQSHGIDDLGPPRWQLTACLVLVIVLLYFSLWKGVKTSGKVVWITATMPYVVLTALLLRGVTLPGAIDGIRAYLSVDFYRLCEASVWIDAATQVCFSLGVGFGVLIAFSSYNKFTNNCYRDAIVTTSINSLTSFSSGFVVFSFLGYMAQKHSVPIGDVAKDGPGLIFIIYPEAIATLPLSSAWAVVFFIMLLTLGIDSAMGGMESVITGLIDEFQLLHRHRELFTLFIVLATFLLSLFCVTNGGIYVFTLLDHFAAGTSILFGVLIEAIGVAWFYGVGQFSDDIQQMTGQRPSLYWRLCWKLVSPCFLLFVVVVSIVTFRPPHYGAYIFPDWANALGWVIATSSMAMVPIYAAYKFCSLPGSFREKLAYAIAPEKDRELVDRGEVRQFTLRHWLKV
Chain of UniProt P41143 (whole entry, looked up): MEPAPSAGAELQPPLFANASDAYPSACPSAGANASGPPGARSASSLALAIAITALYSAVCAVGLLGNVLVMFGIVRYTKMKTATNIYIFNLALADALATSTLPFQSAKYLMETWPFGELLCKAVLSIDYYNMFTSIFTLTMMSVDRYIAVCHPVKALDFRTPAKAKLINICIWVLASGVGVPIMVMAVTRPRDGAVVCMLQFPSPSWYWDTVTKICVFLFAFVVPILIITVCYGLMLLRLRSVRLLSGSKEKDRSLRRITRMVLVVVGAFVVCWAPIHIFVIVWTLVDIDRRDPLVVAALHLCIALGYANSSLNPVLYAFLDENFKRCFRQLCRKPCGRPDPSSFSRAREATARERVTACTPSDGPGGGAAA

SMILES	tested on	test	conditions	how to read	quantity	value
Cl.Cl.O=C(Nc1ccc(O[C@H]2CCNC2)c(-c2ccc(F)cc2)c1)c1ccc(O[C@H]2CCNC2)c(-c2ccc(F)c(F)c2)c1	Wnt-activated cancer cells	cytotoxicity		baseline: Wnt-activated over Wnt-latent cells	selectivity ratio	2 to 4 fold
NC(=O)CBr	CHO	DNA damage			EC50	36.8 µM
O=[N+]([O-])c1cc[n+]([O-])c2ccccc12	primary human hepatocytes	DNA damage, comet			lowest effective concentration	2.5 µM
CC1(C)CCCC(C)(C)N1[O]	HaCaT	cytotoxicity	24 h		IC50	2660 µM
N[C@@H](Cc1ccc(N(CCCl)CCCl)cc1)C(=O)O	HPLF periodontal ligament fibroblasts				CC50	> 200 µM
C=CCN(CC=C)CCc1c[nH]c2ccc(OC)cc12	Sodium-dependent dopamine transporter (SLC6A3, Homo sapiens, UniProt Q01959)				Ki	3.38 µM
O=c1c2nc(Br)n([C@@H]3O[C@@H]4CO[P@@](O)(=S)O[C@H]4[C@H]3O)c2nc2[nH]c(-c3ccccc3)cn12	PDE4D	cyclic nucleotide hydrolysis, substrate or inhibitor, isothermal titration calorimetry			Km or Ki	8.1 µM
CCN(CC)CCCC(C)Nc1c2ccc(Cl)cc2nc2ccc(OC)cc12 (centres unmarked)	A549-ACE2				CC50	9.24 µM
C=C1[C@@H](O)C[C@H]2C(C)(C)CCC[C@]2(C)[C@H]1C[C@H](O)[C@H]1CC(=O)NC1=O	P388	cytotoxicity	literature value		IC50	0.1 µM
CNC(C)C1CCC(N)C(OC2C(N)CC(N)C(OC3OCC(C)(O)C(NC)C3O)C2O)O1 (centres unmarked)	COS-7	cytotoxicity			CC50	750 ± 100 µM
NC(=O)CCl	CHO	DNA damage			EC50	1380 µM
C[C@@H]1CCO[C@H]2Cn3cc(C(=O)NCc4ccc(F)cc4F)c(=O)c(O)c3C(=O)N12	HOS	measured: ATP level			CC50	> 250 µM
COc1cc2c3c(n(CCCNCCO)c(=O)c2cc1OC)-c1cc2c(cc1C3=O)OCO2	NCI-60 panel (60 lines)		mean graph midpoint		GI50	0.21 ± 0.19 µM
C=CCN(CC=C)CCc1c[nH]c2ccccc12	Delta-type opioid receptor (OPRD1, Homo sapiens, UniProt P41143)	binding	together with: [3H]DADLE		Ki	> 10 µM

A few entries again:
SMILES	tested on	test	conditions	how to read	quantity	value
C=CCN(CC=C)CCc1c[nH]c2ccc(OC)cc12	Sodium-dependent dopamine transporter (SLC6A3, Homo sapiens, UniProt Q01959)				Ki	3.38 µM
O=c1c2nc(Br)n([C@@H]3O[C@@H]4CO[P@@](O)(=S)O[C@H]4[C@H]3O)c2nc2[nH]c(-c3ccccc3)cn12	PDE4D	cyclic nucleotide hydrolysis, substrate or inhibitor, isothermal titration calorimetry			Km or Ki	8.1 µM
